Measured values collected from several papers.
Protocols differ between the studies behind these lines. Numbers after ± are the reported error.
Organism: HIV-1

| Compound | test | system | setting | scale | quantity | result |
| --- | --- | --- | --- | --- | --- | --- |
| CC(=O)NCCN(CC(=O)NCCN(CC(=O)NCCN(CC(=O)NCCC(N)=O)C(=O)C[C@@H](N)CCCNC(=N)N)C(=O)C[C@@H](N)Cc1ccccc1)C(=O)C[C@@H](N)Cc1ccccc1 |  | PBMC, LAI |  | reference: CC50 over EC50 | selectivity index | > 8 |
| Cc1cc(/C=C/C#N)cc(C)c1Oc1nc(NC2CCN(Cc3ccc(S(C)(=O)=O)cc3)CC2)nc2ccccc12 | viral replication, luciferase reporter | TZM-bl, NL4-3 wild type |  |  | EC50 | 22.5 ± 4.05 nM |
| CC(=O)OCC1OC(n2ccc(=O)[nH]c2=O)C2CC=CCC12 (mixture of isomers) | viral replication | human PBM cells, LAI |  |  | EC90 | > 100000 nM |
| Cc1cc(C#N)cc(C)c1Oc1nc(NC2CCN(Cc3ccc(F)cc3)CC2)nc2ccccc12 | viral replication, luciferase reporter | TZM-bl, NL4-3 wild type |  |  | EC50 | 29.3 ± 7.43 nM |
| CC(=O)NCCN(CC(=O)NCCN(CC(=O)NCCN(CC(=O)NCCC(N)=O)C(=O)C[C@@H](N)CCCNC(=N)N)C(=O)C[C@@H](N)CCCNC(=N)N)C(=O)C[C@@H](N)Cc1ccccc1 |  | PBMC, LAI |  | reference: CC50 over EC50 | selectivity index | > 17 |
| Nc1nc(Cl)nc2c1ncn2C1OC(CO)C2CC=CCC21 (mixture of isomers) | viral replication | human PBM cells, LAI |  |  | EC90 | > 100000 nM |
| CC(=O)N[C@H](CCCNC(=N)N)C(=O)N[C@H](CCCNC(=N)N)C(=O)N[C@H](CCCNC(=N)N)C(=O)N[C@H](CCCNC(=N)N)C(=O)N[C@H](CCCNC(=N)N)C(=O)N[C@H](CCCNC(=N)N)C(=O)N[C@H](CCCNC(=N)N)C(=O)N[C@H](CCCNC(=N)N)C(=O)N[C@H](CCCNC(=N)N)C(N)=O | viral replication, measured: p24 | MT-2, NL4-3 | concentration not given |  | inhibition | > 95% |
| Cc1cc(C#N)cc(C)c1Oc1nc(NC2CCN(Cc3ccccn3)CC2)nc2ccccc12 | viral replication, luciferase reporter | TZM-bl, NL4-3 wild type |  |  | EC50 | 16.9 ± 5.32 nM |
| CC(=O)OCC1OC(n2cc(C=CBr)c(=O)[nH]c2=O)C2CC=CCC12 (mixture of isomers) | viral replication | human PBM cells, LAI |  |  | EC90 | > 100000 nM |
| NCCCC[C@H](NC(=O)[C@H](CC(N)=O)NC(=O)[C@H](CCCCNC(=O)[C@H](Cc1ccc(B(O)O)cc1)NC(=O)[C@H](Cc1ccc(O)cc1)NC(=O)[C@@H](N)Cc1ccc(B(O)O)cc1)NC(=O)[C@H](Cc1ccc(B(O)O)cc1)NC(=O)[C@H](Cc1ccc(O)cc1)NC(=O)[C@@H](N)Cc1ccc(B(O)O)cc1)C(=O)N[C@@H](CO)C(=O)N[C@@H](Cc1ccc(O)cc1)C(N)=O | viral replication | U87-CD4/CXCR4, NL4-3 |  |  | IC50 | ~5000 nM |
| COC(=O)c1ccc(CN2CCC(Nc3nc(Oc4c(C)cc(C#N)cc4C)c4ccccc4n3)CC2)cc1 | viral replication, luciferase reporter | TZM-bl, NL4-3 wild type |  |  | EC50 | 28.4 ± 8.93 nM |
| COc1ccc(-n2c(SCc3cccnc3)nnc2[C@H](Cc2ccccc2)NC(=O)Cc2c(C)[nH]c3ccccc23)cc1 |  | MT-4, wild type |  | reference: CC50 over EC50 | selectivity index | 9 |
| CC(=O)NCCN(CCC(=O)NCCN(CCC(=O)NCCN(CCC(=O)NCCC(N)=O)C(=O)[C@@H](N)Cc1ccccc1)C(=O)[C@@H](N)CCCNC(=N)N)C(=O)[C@@H](N)Cc1ccccc1 |  | PBMC, LAI |  | reference: CC50 over EC50 | selectivity index | > 1.2 |
| COc1ccc(-n2c(SCc3ccncc3)nnc2[C@H](Cc2ccccc2)NC(=O)Cc2c(C)[nH]c3ccccc23)cc1 |  | MT-4, wild type |  | reference: CC50 over EC50 | selectivity index | 9 |
| Cc1cc(C#N)cc(C)c1Oc1nc(NC2CCN(Cc3ccc(C#N)cc3)CC2)nc2ccccc12 | viral replication, luciferase reporter | TZM-bl, NL4-3 wild type |  |  | EC50 | 11.4 ± 3.62 nM |
| CCN(Cc1cccc(S(=O)(=O)O)c1)c1ccc(C(=C2C=CC(=[N+](CC)Cc3cccc(S(=O)(=O)[O-])c3)C=C2)c2ccccc2)cc1 | cell-cell fusion | H9/HIV-1 IIIB and MT2 cells |  |  | IC50 | 12700 nM |
| CC(=O)OCC1OC(n2cc(C)c(=O)[nH]c2=O)C2CC=CCC12 (mixture of isomers) | viral replication | human PBM cells, LAI |  |  | EC90 | > 100000 nM |
| Cc1cc(Oc2c(C(F)(F)F)ccn(Cc3n[nH]c(=O)n3C)c2=O)c2cccc(Cl)c2n1 |  | MT4, wild type |  | reference: CC50 over EC50 | selectivity index | < 1 |
| Cc1cc(C#N)cc(C)c1Oc1nc(NC2CCN(Cc3ccc(S(N)(=O)=O)cc3)CC2)nc2ncccc12 | viral replication, luciferase reporter | TZM-bl, NL4-3 wild type |  |  | EC50 | 2.02 ± 0.53 nM |
| C=CCSc1nnc([C@H](Cc2ccccc2)NC(=O)Cc2c(C)[nH]c3ccccc23)n1-c1ccc(OC)cc1 |  | MT-4, wild type |  | reference: CC50 over EC50 | selectivity index | 12 |
| Cc1cc(C#N)cc(C)c1Oc1nc(NC2CCN(Cc3ccc(Cl)cc3)CC2)nc2ccccc12 | viral replication, luciferase reporter | TZM-bl, NL4-3 wild type |  |  | EC50 | 29 ± 7.8 nM |
| COc1ccc(-n2c(SCCF)nnc2[C@H](Cc2ccccc2)NC(=O)Cc2c(C)[nH]c3ccccc23)cc1 |  | MT-4, wild type |  | reference: CC50 over EC50 | selectivity index | 20 |
| CC(=O)N[C@@H](CC(C)C)C(=O)N[C@@H](CS)C(=O)N[C@@H](CC(=O)O)C(=O)N[C@@H](CS)C(=O)N1CCC[C@H]1C(=O)N[C@@H](CC(N)=O)C(=O)NCC(=O)N1CCC[C@H]1C(=O)N[C@@H](Cc1c[nH]c2ccccc12)C(=O)N[C@H](C(=O)N[C@@H](Cc1c[nH]c2ccccc12)C(=O)N[C@H](C(=O)N1CCC[C@H]1C(=O)N[C@@H](C)C(=O)N[C@@H](Cc1ccccc1)C(=O)N[C@@H](CS)C(=O)N[C@@H](CCC(N)=O)C(=O)N[C@@H](C)C(=O)N[C@H](C(=O)NCC(=O)O)C(C)C)C(C)C)C(C)C | viral replication, inhibitor, SEAP reporter | CEMx174 SEAP reporter, NL4-3 | 3 days |  | IC50 | 2630 nM |
| Cc1cc(/C=C/C#N)cc(C)c1Oc1nc(NC2CCN(Cc3ccc(S(N)(=O)=O)cc3)CC2)nc2ccccc12 | viral replication, luciferase reporter | TZM-bl, NL4-3 wild type |  |  | EC50 | 8.44 ± 3.17 nM |

Excerpt of the above:
| Compound | test | system | setting | scale | quantity | result |
| --- | --- | --- | --- | --- | --- | --- |
| CC(=O)N[C@H](CCCNC(=N)N)C(=O)N[C@H](CCCNC(=N)N)C(=O)N[C@H](CCCNC(=N)N)C(=O)N[C@H](CCCNC(=N)N)C(=O)N[C@H](CCCNC(=N)N)C(=O)N[C@H](CCCNC(=N)N)C(=O)N[C@H](CCCNC(=N)N)C(=O)N[C@H](CCCNC(=N)N)C(=O)N[C@H](CCCNC(=N)N)C(N)=O | viral replication, measured: p24 | MT-2, NL4-3 | concentration not given |  | inhibition | > 95% |
| Cc1cc(C#N)cc(C)c1Oc1nc(NC2CCN(Cc3ccccn3)CC2)nc2ccccc12 | viral replication, luciferase reporter | TZM-bl, NL4-3 wild type |  |  | EC50 | 16.9 ± 5.32 nM |
| CC(=O)OCC1OC(n2cc(C=CBr)c(=O)[nH]c2=O)C2CC=CCC12 (mixture of isomers) | viral replication | human PBM cells, LAI |  |  | EC90 | > 100000 nM |
| NCCCC[C@H](NC(=O)[C@H](CC(N)=O)NC(=O)[C@H](CCCCNC(=O)[C@H](Cc1ccc(B(O)O)cc1)NC(=O)[C@H](Cc1ccc(O)cc1)NC(=O)[C@@H](N)Cc1ccc(B(O)O)cc1)NC(=O)[C@H](Cc1ccc(B(O)O)cc1)NC(=O)[C@H](Cc1ccc(O)cc1)NC(=O)[C@@H](N)Cc1ccc(B(O)O)cc1)C(=O)N[C@@H](CO)C(=O)N[C@@H](Cc1ccc(O)cc1)C(N)=O | viral replication | U87-CD4/CXCR4, NL4-3 |  |  | IC50 | ~5000 nM |
